Published values of several laboratories.
± marks the error that the study gave.

CCC(=C(c1ccc(Cl)cc1)c1ccc(OCCCN(C)C)cc1)c1ccc(OC)cc1  GI50 (KM12; cell growth or viability, SRB): 2.55 µM
CCN1CCN(Cc2ccc(C(=O)Nc3ccc(C)c(NCc4cnc5[nH]ccc5c4OC)c3)cc2C(F)(F)F)CC1  GI50 (SAOS-2; cell growth or viability; 48 h): 0.39 µM
CC(Cc1ccc(Cl)cc1)=C(c1ccc(Cl)cc1)c1ccc(OCCN(C)C)cc1  GI50 (UACC-257; cell growth or viability, SRB): 4.24 µM
COc1cc2c(cc1C)NC(=O)C2=Cc1c(Cl)[nH]c2c1ccc1ccccc12  GI50 (NCI-60 cell panel; 48 h, panel mean): 0.37 µM
C[n+]1ccc(/C=N/NC(=O)c2cccc(C(=O)N/N=C/c3cc[n+](C)c4ccccc34)n2)c2ccccc21  GI50 (T98G multidrug-resistant; CellTiter-Glo; 96 h): 17.8 ± 0.2 µM
CC/C=C\C/C=C\C/C=C\C/C=C\C/C=C\C/C=C\CCC(=O)Nc1ccn(C2OC(CO)C(O)C2(F)F)c(=O)n1 (stereo not drawn)  GI50 (UACC-257; cell growth or viability, SRB): 0.518 µM
CC(=O)Nc1cc(COc2c(Cl)cc(CC(N)C(=O)O)cc2Cl)c2oc(-c3ccccc3)nc2c1 (stereo not drawn)  GI50 (HEK293 expressing human LAT1; cell proliferation; 72 h): > 30 µM
CC(=C(c1ccc(O)cc1)c1ccc(Cl)cc1)c1ccc(Cl)cc1  GI50 (UACC-257; cell growth or viability, SRB): 0.94 µM
C[n+]1ccc(/C=N/NC(=O)c2cncc(C(=O)N/N=C/c3cc[n+](C)c4ccccc34)n2)c2ccccc21  GI50 (T98G multidrug-resistant; CellTiter-Glo; 96 h): 12 ± 0.5 µM

Excerpt of the above:
CCC(=C(c1ccc(Cl)cc1)c1ccc(OCCCN(C)C)cc1)c1ccc(OC)cc1  GI50 (KM12; cell growth or viability, SRB): 2.55 µM
